Measured values pooled from the literature.
Parts stem from different laboratories: compare values within a part only.

Series 1
Target: Histone acetyltransferase KAT6A, both winged helices, GST fusion (KAT6A, Homo sapiens, UniProt Q92794, residues 1-181)
Method: protein binding microarray
Molecule type: double-stranded DNA, one strand shown
Matrix: in vitro
Concentration: not given
Setting: 8-mer, flanks averaged, mean of 2 arrays, mostly near background
Relative to: not given
Reading: higher = stronger binding
Quantity: E-score
Residues (chain): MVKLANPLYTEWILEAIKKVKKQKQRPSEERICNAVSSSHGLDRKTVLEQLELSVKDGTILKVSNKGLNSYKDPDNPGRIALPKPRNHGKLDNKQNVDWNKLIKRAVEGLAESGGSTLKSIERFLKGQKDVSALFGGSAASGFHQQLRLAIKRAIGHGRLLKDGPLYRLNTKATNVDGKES
TATGCCAA: -0.147
CGCCCCCG: 0.257
AAGGGTTC: -0.139
GCATAATA: 0.0396
ATACCATC: -0.0599
TAGATGAA: -0.0469
ATTTGGCG: 0.00352
ATGTTAGC: -0.0339
GCATACTA: -0.0899
ACCGACGA: 0.0441
ACCGGTCG: 0.155
CATCTCCA: -0.0971
CACGTTAC: 0.00558
CCAAATGA: -0.151
TCTACTAA: -0.0211
TGGCACCA: -0.175
TAACCTCA: -0.188
GAGGGATC: -0.0551
CCACGTCA: -0.135
AACAGTAG: -0.0261
CCATGCTC: -0.172
TACAAAGA: -0.0526

Series 2
Target: Interferon regulatory factor 5, full length, phosphomimetic (IRF5, Homo sapiens, UniProt Q13568-2, residues 1-514, K96S/S451D/S453D/S456D/S462D)
Method: protein-binding microarray
Molecule type: double-stranded DNA, one strand shown
Matrix: in vitro
Concentration: 250 nM
Setting: 60-bp whole probe
Together with: salmon DNA 0.4 mg/ml
Relative to: random background probes
Reading: higher = stronger binding
Quantity: log fluorescence
Constant ends, left off below: GCCTAGCAC … GTCTTGATTCGCTTGACGCTGCTG
TGAGATCTCAGTCTCGATTAGTGCTAG: 0.618 z-score
GATGATTTCGGGACTGGAGACGTGCTA: 2.35 z-score
GACAATTTCAGACTGGAGACGTGCTAG: 0.488 z-score
TGAGGACTGGGGTTTCGGTTAGTGCTA: 6.25 z-score
TTAGATAACGGGTTTCGATTAGTGCTA: 7.19 z-score
TTAGGTTTGGGTTTCGGTTAGTGCTAG: 8.37 z-score
GACGGCTTCGACTATCGGGACGTGCTA: 0.859 z-score
GACGGTATCCTACTGCTGAGGTGCTAG: -0.248 z-score
TTAGGTCTCGGTTTCGCTTAGTGCTAG: 4.85 z-score
GACGGTATCGGTTTCGAGACGTGCTAG: 8.42 z-score
TTAGATTTCAGTCTCAATTAGTGCTAG: 2.08 z-score
GACCAACTGAGTCTCGAGACGTGCTAG: -0.226 z-score
TTAGGTCTCGGTCTCGGTCAGTGCTAG: 0.915 z-score
TTAGGCCTGGGTCTCGGTTAGTGCTAG: -0.223 z-score
TTAGGACTGGACTTTCGGTTAGTGCTA: 9.01 z-score
GACGATATCTGACTGGAGACGTGCTAG: 0.294 z-score
GACGGTCTCGGTTTCGGGACGTGCTAG: 3.24 z-score
TCAGTTTTCATTATTGCACTGTGCTAG: 2.68 z-score
GTCGAACTGAGTTTCGAGACGTGCTAG: 5.3 z-score

Series 3
Target: RNA binding protein fox-1 homolog 2, RRM domain, GST-SBP tag (RBFOX2, Homo sapiens, UniProt O43251-10, residues 100-194)
Method: RNA Bind-n-Seq
Molecule type: RNA
Matrix: in vitro
Concentration: 365 nM
Setting: natural RNA segment, single round, ends assumed
Relative to: no-protein control
Reading: higher = stronger binding
Quantity: RBNS enrichment (R)
Constant ends, left off below: GGGAGUUCUACAGUCCGACGAUC … UGGAAUUCUCGGGUGCCAA
Residues (chain): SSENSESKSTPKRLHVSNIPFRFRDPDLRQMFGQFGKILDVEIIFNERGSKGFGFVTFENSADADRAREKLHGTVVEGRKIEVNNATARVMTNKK
UGCUGCCAGUUUCUUUUUUGGUUCCUUUCUGCCCAGGACUGCAUGAGUUUCCCAGCCCCAAGUGGGGGCUGCUAGGCCCUUCCUCCCUGCCUCUGGGAACCGGGCUGGUG: 1
CAAAAUACUAAAGCUGGGAGGAAACUUGGAGAUCUAUAGGUCAAACCUCCCCAUUGGGCUGAUGAGAAAAUACACGCAGGCCUAGCAUGGUGCCUGCCACCAUGGUGGGA: 2.62
UUUUCUAUUUUGAGAAUUAUUUUAAUAUAUAUUUUAAUAUAUAAACUUGUGAGUUAAAUUUUUUUUUUGCAAAAUUAGCACAUGAAAAGAGAUUGAUGGUUUUAAGUAGU: 3.21
UCUGAUGUGUGAAAUUUAAGGAAAGAGCCAUUUAAUAAAUGCCAAGCAGGGCAAUGCAGCCAAAUAUUAGAGUUGAUGUGCAGUCUUAGGUCCUUUUUAAUCUGGGGUAU: 0.753
CCAAGUAAGGUGUAAGGUUGCAUGUUUCAGUCCUCUACCAUCCUGCACUGUGAGCAGCACUAUACCUGUGCGUUGUCUGAAAGCCUUCCGUAUAUUCUCCAGCUAAAUGG: 12
CUGUGUGGUGUCGCGCCUUCUCCCCCCCGGGGCUGGGUUGGCGCACCCUCCCCUCCCGUCUACUCAUUCCCCGGGGCGUUUCUUUGCCGAUUUUUGAAUGUGAUUUUAAA: 9.44
AUCUGUCUAGAAUCCUGCUUUACAGGAUCAUGUAAAUGCUCAAAGAUGUAAUGUAGUUCUUUGUUCCUGCUUUCUCUUUCAGUAUUAAACUCUCCUUUGAUAUUAUGUGG: 0.44
GCCCAGGUUGGGCAUGACAUUACAACCCCAGCCCUACCUCAUCUGUGCAGAAAGACGCUGAAAGUGCAAAAUGUAUUGGGGAAUAACCUUGUUGAAUCACAAUAAUGGUG: 0.751
ACUGUCCCUUCUCUUCCUACCUCCAUCCAUGGAAAAUUAGUUAUUUUCUGAUCCUUUCCCCUGCCUGGUCUAGCUCCUCUCCAAACAGCCAUGCCCUCCAAAUGCUAGAG: 1.17
CGUGAGGAACAUGGUAGGUUCCUCACUUAUCACUGUAGAUGAUUCUAUAUGGACACAACAGUAAGAAGAAUGGGGCCUCGUCCCUGUCGACUUGAAUAUUAUCCCUAUGU: 0.367
UAACUGUCCCAGCGACAUUUCUCCAAGUGGAAAUCCUAUUUUUGUAGAUCUCCAUGCUUUGCUCUCAAGGCUUGGAGAGGUAUGUGCCCCUCCUGGGUGCUCACCGCCUG: 0.298
UUUGGGAAAAAGUACCAGCAAUGAUGUCGAUGUUAAUAAUACUUCAUAAUUGAUAUCUUAUAGCUUUCAAGUAAAGUGUUUUCUAUAACUCAGAUAAUUAAUUUGAAGCA: 0.325

Series 4
Target: Ras GTPase-activating protein-binding protein 1, C-terminal RGG region (G3BP1, Homo sapiens, UniProt Q13283)
Chain of UniProt Q13283 (whole entry, looked up): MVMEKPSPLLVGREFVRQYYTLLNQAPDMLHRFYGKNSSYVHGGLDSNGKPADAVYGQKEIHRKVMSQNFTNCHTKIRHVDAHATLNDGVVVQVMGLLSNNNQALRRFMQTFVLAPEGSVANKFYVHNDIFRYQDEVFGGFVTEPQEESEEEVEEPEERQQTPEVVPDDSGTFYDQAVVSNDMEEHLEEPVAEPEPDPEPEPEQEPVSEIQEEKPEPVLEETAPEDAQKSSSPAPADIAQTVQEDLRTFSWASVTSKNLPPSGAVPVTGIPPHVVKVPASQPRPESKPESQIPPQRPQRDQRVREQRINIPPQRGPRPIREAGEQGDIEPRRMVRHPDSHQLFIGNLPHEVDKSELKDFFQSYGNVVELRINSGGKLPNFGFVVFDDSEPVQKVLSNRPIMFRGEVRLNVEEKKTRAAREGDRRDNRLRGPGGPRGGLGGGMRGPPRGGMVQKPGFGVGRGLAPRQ
Method: RNA Bind-n-Seq
Molecule type: RNA
Matrix: in vitro
Concentration: 1 µM
Setting: whole 134-nt RNA, ends assumed
Together with: 150 mM KCl
Relative to: input library
Reading: higher = stronger binding
Quantity: log2 enrichment
Constant ends, left off below: GGGAGUUCUACAGUCCGACGAUC … UGGAAUUCUCGGGUGUCAAGG
GCAGGAAGUAAAAACAAAUGGAAAUGCUUCGGAUAGUGGCAGGGGUGGGCGUUGCUAAGGAAAGGGUGGGAUGGGAGUGGGUAAAGAGUU: 1.57
ACCAUGCAGGUGGGCAUCUUUGGGAAGUGGGGCAAGGGGGGGAUAGGGAGGGGGGUAACACUUUGGGAACAGGUGGUCCCAGGUCGUAAA: -1.04
ACCAUGCAGGUGGGCAUCUUUGGGAAGUGGGGCAAGGGGGGGAUAGGGAGGGCGGUAACACUUUGGGAACAGGUGGUCCCAGGUCGUUUC: 2.23
CUCAAGUCCUGUGCUACACAUCGUAUGUACCGAAUCGGAAGGAAGGGAAGGGGAAAGUAUUAUGUUACGCCGUUCGGAUCUGCACUUCCA: -1.08
CACAGACAACACGCACCCACACAGACAUAGAGGGAAGGGGUUGGGAUGGGGACAGGGUGCACAGCAGGGCGGGGUAGGACCCCAGCCCCU: -1.53e-05
CAAGUCCUGUGCUACACAUCGUAUGUACCGAAUCGGAAAAAGGUUUUUUUGGUGGAAAGUAUUAUGUUACGCCGUUCGGAUCUGCACUUC: -1.93
CACAGACAACACGCACCCACACAGACACAGAAAAAAGGGGUUGGGAUGGGGACAGGGUGCACAGCAGGGCGGGGUAGGACCCCAGCCCCU: -0.253
ACCAUGCAGGUGGGCAUCUUUGGGAAGUGGGGCAAGGGGGGGAUAGGGAGGGGGGUAACACUUUGGGAACAGGUGGACCCAGGUCGUUUC: 1.29
CUGUGCUACACAUCGUAUGUACCGAAUCGGGGUUUUUUUGGGGAAAAAAAGGGGUUUGGGGAAAGUAUUAUGUUACGCCGUUCGGAUCUG: -0.521
GUCCUGUGCUACACAUCGUAUGUACCGAAUCGGGGAAAAAGGGGUUUGGGGAAAGGGGAAAGUAUUAUGUUACGCCGUUCGGAUCUGCAC: 3.14
CCUGUGCUACACAUCGUAUGUACCGAAUCGGGGAAAAAAAGGGGUUUUUUUGGGGAGGGGAAAGUAUUAUGUUACGCCGUUCGGAUCUGC: 0.767
CAAGUCCUGUGCUACACAUCGUAUGUACCGAAUCGGGAGGGUUUUUUUGGGAGGGAAAGUAUUAUGUUACGCCGUUCGGAUCUGCACUUC: 0.595
AGUCCUGUGCUACACAUCGUAUGUACCGAAUCGGGAAAAGGGGAAAAGGGGAAAAGGAAAGUAUUAUGUUACGCCGUUCGGAUCUGCACU: -0.938
GCAGGAAGUAAAAACAAAUGGAAAUGCUUCGGAUAGUGGCAGGGGUGGGGGUUGCUAAGGAAAGGGUGGGAUGGGAGGGGGUAAAGAGUU: 2.4

Series 5
Target: PABPC1L2, full length, GST fusion (mouse, UniProt A0ABA7IW68)
Method: RNAcompete
Molecule type: RNA
Matrix: in vitro
Concentration: 20 nM
Setting: 7-mer, probes averaged, single round
Relative to: mean of 7-mers
Reading: higher = stronger binding
Quantity: 7-mer Z-score
Target sequence (chain): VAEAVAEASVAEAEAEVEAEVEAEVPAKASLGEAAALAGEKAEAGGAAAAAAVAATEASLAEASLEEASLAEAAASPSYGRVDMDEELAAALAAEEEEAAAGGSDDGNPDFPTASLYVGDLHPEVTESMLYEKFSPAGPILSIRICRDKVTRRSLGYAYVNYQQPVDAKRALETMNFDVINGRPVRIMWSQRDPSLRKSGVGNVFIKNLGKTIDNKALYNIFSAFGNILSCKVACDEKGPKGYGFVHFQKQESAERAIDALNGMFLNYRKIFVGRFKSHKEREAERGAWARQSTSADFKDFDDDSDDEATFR
AGAGCUG: -0.142
GGCGAGA: 0.349
UUACUGU: -0.246
AUCCGGG: 0.157
GACUAUC: -0.277
GGAUUUU: -0.15
GCCAGGU: -0.15
CCUAUGU: -0.436
CUUUAGA: 0.095
UUAAAUG: 0.233
CCAGGAU: -0.182
UUGACUG: -0.316
UUCAGGC: -0.293
CUGAGCU: -0.18
UAUUAGC: -0.202
UGCUACU: -0.255
UAAUCGU: -0.336
AUCCCUU: -0.269
CCGUAGC: -0.264
CCAUACA: -0.0192
UUGACGC: -0.211
GGUCUAU: -0.188
GUCAUCA: -0.139
CUGCUAU: -0.365
CAUAUCU: -0.222

For quick reference, copied from above (series 2):
GTCGAACTGAGTTTCGAGACGTGCTAG: 5.3 z-score
TTAGGACTGGACTTTCGGTTAGTGCTA: 9.01 z-score
TTAGATTTCAGTCTCAATTAGTGCTAG: 2.08 z-score
TGAGATCTCAGTCTCGATTAGTGCTAG: 0.618 z-score
TTAGATAACGGGTTTCGATTAGTGCTA: 7.19 z-score
TTAGGTCTCGGTTTCGCTTAGTGCTAG: 4.85 z-score
GACCAACTGAGTCTCGAGACGTGCTAG: -0.226 z-score
GACGGCTTCGACTATCGGGACGTGCTA: 0.859 z-score
TTAGGTCTCGGTCTCGGTCAGTGCTAG: 0.915 z-score
